Results gathered from unrelated publications.
pEC50, pIC50: −log10 of the molar value.
Organism: SARS-CoV-2

NLWNTFTRL
antigen-specific T cell frequency (peptide, T cells from acute-phase patients; dose not given): 0.00266%

Cc1nn(-c2ccc(Cl)cc2)c2c1C(c1ccc(I)cc1)C(C#N)=C(N)O2 (centres unmarked)
viral titre log reduction (Vero C1008; 1 µM; relative to: positive control): 0.0335 log10

Cc1ncsc1-c1ccc(CNC(=O)[C@@H]2C[C@@H](O)CN2C(=O)[C@@H](NC(=O)COCCOCCOCCNC(=O)C[C@@H]2N=C(c3ccc(Cl)cc3)c3c(sc(C)c3C)-n3c(C)nnc32)C(C)(C)C)cc1
activity class (viral replication; Vero E6; concentration not given): active

Cc1nccn1CC1CCc2c(c3ccccc3n2C)C1=O (centres unmarked)
pIC50 (viral replication, anti-nucleoprotein immunostaining; Vero E6): < 5.00

Cc1cccc(/C=N/Nc2cc(N3CCOCC3)nc(OCCc3ccccn3)n2)c1
EC90 (viral replication; 293T-ACE2, USA-WA1/2020): 0.0374 µM

COc1ccc(CN=c2[nH]c(N3CCC[C@H]3CO)ncc2C(=O)NCc2ncccn2)cc1Cl
pIC50 (viral replication; Huh-7): < 5.70

O=c1[nH]c(=O)n([C@H]2C[C@H](O)[C@@H](CO)O2)cc1/C=C/Br
viral replication inhibition (Vero E6; concentration not given, NYC laboratory): inactive

CC(=O)O[C@]1(C(C)=O)CC[C@H]2[C@@H]3CCC4=CC(=O)CCC4=C3[C@@H](c3ccc(N(C)C)cc3)C[C@@]21C
pIC50 (viral replication; Huh-7): < 5.70

CN(C)CC/C=C1/c2ccccc2Sc2ccc(Cl)cc21
pEC50 (viral replication, GFP plate reader screen; cell-based): 5.15

CC(C)(C)N1CCC(c2ccccc2)(c2ccccc2)CC1
maximum response (cytopathic effect; USA_WA1/2020; round 1, 5-point): 40.7%

C=C1C(=CC=C2CCCC3(C)C2CCC3C(C)C=CC(O)C2CC2)CC(O)CC1O (centres unmarked)
pIC50 (viral replication; Huh-7): < 5.70

O=C(CN1CCC(CN2Cc3ccccc3C2=O)CC1)c1ccc(F)cc1
pIC50 (viral replication, anti-nucleoprotein immunostaining; Vero E6): < 5.00

O=C(CCCN1CCC(O)(c2ccc(Cl)cc2)CC1)c1ccc(F)cc1
activity class (viral replication; Vero E6; concentration not given): active

COc1cccc2c(N3CCc4ccccc4C3C)nc(Nc3ccc(F)cc3C)nc12 (centres unmarked)
EC90 (viral replication; 293T-ACE2, USA-WA1/2020): > 2.5 µM

Cc1nn(-c2ccc(Cl)cc2)c2c1C(c1ccc(Br)cc1)C(C#N)=C(N)O2 (centres unmarked)
viral titre log reduction (Vero C1008; 1 µM; relative to: positive control): 0.0468 log10

O=C(/C=C/c1ccc(O)c(O)c1/C=C/c1ccc(O)c(O)c1)O[C@H](Cc1ccc(O)c(O)c1)C(=O)O
CPE inhibition (viral replication; Vero E6; 1.562 µM): 0%

COc1cccc([C@@H](C)NCCCc2ccccc2Cl)c1
pEC50 (viral replication, high-content imaging screen; cell-based): < 4.00

COc1ccc(C[C@@H]2c3cc(Oc4cc(C[C@@H]5c6cc(O)c(OC)cc6CCN5C)ccc4O)c(OC)cc3CCN2C)cc1
mean inhibition (viral cytopathic effect; Vero E6; 1.562 µM): 0%

Clc1ccccc1C1(c2ccnc(-c3ccccc3)n2)CCNCC1
AC50 (cytopathic effect, cell-based CPE; USA_WA1/2020; round 1, 5-point dilution): 14.1 µM

NCCCC(N)(C(=O)O)C(F)F (centres unmarked)
pIC50 (viral replication; Huh-7): < 5.70

CC(C)=CCc1c(O)ccc(C(=O)/C=C/c2ccc(O)cc2)c1O
CPE inhibition (viral replication; Vero E6; 3.125 µM; relative to: mean of replicates): 0%

Cc1c(-c2ccccc2)oc2c(C(=O)OCCN3CCCCC3)cccc2c1=O
pIC50 (viral replication; Vero E6; inactive set pIC50 4): < 5.00

CO[C@@]1(NC(=O)Cc2cccs2)C(=O)N2C(C(=O)O)=C(COC(N)=O)CS[C@@H]21
pIC50 (viral replication; Huh-7): < 5.70

CCN(CC)CCNC(=O)c1cc(-c2ccc(Br)s2)nc2ccccc12
maximum response (cytopathic effect; USA_WA1/2020; retest, 8-point, duplicates): -0.296%

Cc1nn(-c2ccc(Cl)cc2)c2c1C(c1ccc(F)cc1F)C(C#N)=C(N)O2 (centres unmarked)
viral reduction (viral replication; Vero; 10 µM): 4.78%

CC(=O)O[C@H]1CC[C@@]2(C)C(=CC[C@@H]3[C@@H]2CC[C@]2(C)C(c4cccnc4)=CC[C@@H]32)C1
pEC50 (viral replication, high-content imaging screen; cell-based): < 4.60

CC1CCN(CCCC(=O)c2ccc(F)cc2)CC1
pIC50 (viral replication, anti-nucleoprotein immunostaining; Vero E6): < 5.00

CN(c1nc2ccccc2s1)C1CCN(CC(O)COc2ccc(F)cc2)CC1 (centres unmarked)
pEC50 (viral replication, high-content imaging screen; cell-based): < 4.00

O=C(O[C@@H]1Cc2c(O)cc(O)cc2O[C@@H]1c1cc(O)c(O)c(O)c1)c1cc(O)c(O)c(O)c1
CPE inhibition (viral replication; Vero E6; 6.25 µM; relative to: mean of replicates): 0%

O=C(N[C@H](CO)[C@H](O)c1ccc([N+](=O)[O-])cc1)C(Cl)Cl
viral replication inhibition (concentration not given, Paris laboratory): inactive

CCCN(CCC)CCNC(=O)c1cc(-c2ccc(Br)s2)nc2ccccc12
maximum response (cytopathic effect; USA_WA1/2020; retest, 8-point, duplicates): 76.6%

CC/C(=C(/C#N)c1ccc(OCCN(CC)CC)cc1)c1ccc(Cl)cc1
inhibition (viral replication; Vero E6, USA-WA1/2020; 2.5 µM): 50.5%

CNCCN(C)c1nc(NC(C)c2ccccc2)c2ccccc2n1 (centres unmarked)
AC50 (cytopathic effect, cell-based CPE; USA_WA1/2020; round 2, 5-point dilution): 10 µM

CCOC(=O)Oc1c(OC)cc(C(=O)O[C@@H]2C[C@@H]3CN4CCc5c([nH]c6cc(OC)ccc56)[C@H]4C[C@@H]3[C@H](C(=O)OC)[C@H]2OC)cc1OC
pEC50 (viral replication, GFP plate reader screen; cell-based): < 4.00

CC(C)=CCN1Cc2cc(Cl)cc3[nH]c(=S)n(c23)C[C@@H]1C
EC90 (viral replication, inhibitor; Vero E6, USA-WA1/2020; 24 h): 0.487 µM

Cc1nn(-c2ccc(Cl)cc2)c2c1C(c1ccc(Cl)cc1)C(C#N)=C(N)O2 (centres unmarked)
Ct value (RT-qPCR, item: viral RNA; Vero; 10 µM; higher means less virus): 25.5 cycles

Cc1ccc2c(NC(C)c3ccccc3)nc(N3CCNCC3)nc2c1 (centres unmarked)
efficacy (cytopathic effect, cell-based CPE; USA_WA1/2020; round 2, 5-point dilution): 92.8%

CC(C)(C)c1ccc(CN2CCN(C(c3ccccc3)c3ccc(Cl)cc3)CC2)cc1 (centres unmarked)
pEC50 (viral replication, high-content imaging screen; cell-based): 4.69

C=C[C@@H]1C[C@]1(NC(=O)[C@@H]1C[C@@H]2CN1C(=O)[C@H](C(C)(C)C)NC(=O)O[C@@H]1C[C@H]1CCCCCc1nc3ccc(OC)cc3nc1O2)C(=O)NS(=O)(=O)C1CC1.O
combination index (Vero E6; together with: remdesivir): 0.6

O=C(Nc1ccccc1)OCC(CN1CCCCC1)OC(=O)Nc1ccccc1 (centres unmarked)
pEC50 (viral replication, high-content imaging screen; cell-based): < 4.60

N#CC[C@H](C1CCCC1)n1cc(-c2ncnc3[nH]ccc23)cn1
viral replication inhibition (concentration not given, Paris laboratory): inactive

CN1CCCC(CC2c3ccccc3Sc3ccccc32)C1 (centres unmarked)
pEC50 (viral replication, GFP plate reader screen; cell-based): 5.02

Cc1ccc2nc(C3CCCN(Cc4cccc(-c5cccnc5)c4)C3)[nH]c(=O)c2c1 (centres unmarked)
efficacy (cytopathic effect; USA_WA1/2020; round 2, 5-point): 82.7%

Cc1ccc(NS(=O)(=O)c2cccc(C(=O)NC3CCN(c4ncnc5[nH]cnc45)CC3)c2)cc1
relative infection (A549-ACE2, Wuhan-Hu-1; 200 µM; relative to: untreated): 15.7%

Cc1cc(OCC(O)CN2CCN(c3cccc(Cl)c3)CC2)ccc1Cl (centres unmarked)
maximum response (cytopathic effect; USA_WA1/2020; round 1, 5-point): 80.4%

Cc1nn(-c2ccc(Cl)cc2)c2c1C(c1ccc(Cl)cc1Cl)C(C#N)=C(N)O2 (centres unmarked)
viral titre (Vero; 1 µM): 840000 IU/mL

O=C(c1ccc(-n2nnc3cccnc32)cc1)N(c1ncccc1Cl)[C@@H]1CCCNC1
viral replication inhibition (concentration not given, Paris laboratory): inactive

CC(C)(C)[C@H](NC(=O)C(F)(F)F)C(=O)N1C[C@H]2[C@@H]([C@H]1C(=O)N[C@H](C#N)C[C@@H]1CCNC1=O)C2(C)C
inhibition (viral replication, infectious virus; Vero E6; 3 µM): 97.2%

Cc1nn(-c2ccc(Cl)cc2)c2c1C(c1ccc(Cl)c(Cl)c1)C(C#N)=C(N)O2 (centres unmarked)
viral titre log reduction (Vero C1008; 1 µM; relative to: positive control): 0.0134 log10

CCN(CC)CCOCCOC(=O)C1(c2ccccc2)CCCC1
pIC50 (viral replication; A549 expressing ACE2; inactive set pIC50 4): < 5.00

CCCc1nc(C)c2c(=O)nc(-c3cc(S(=O)(=O)N4CCN(CC)CC4)ccc3OCC)[nH]n12
pIC50 (viral replication; Huh-7): < 5.70

Cc1ccccc1NC(=N)Nc1ccccc1C
pIC50 (viral replication, anti-nucleoprotein immunostaining; Vero E6): < 5.00

CN(C)C(=O)COC(=O)Cc1ccc(OC(=O)c2ccc(NC(=N)N)cc2)cc1
viral replication inhibition (Vero E6; concentration not given, NYC laboratory): inactive

A few entries again:
NLWNTFTRL
antigen-specific T cell frequency (peptide, T cells from acute-phase patients; dose not given): 0.00266%

Cc1nn(-c2ccc(Cl)cc2)c2c1C(c1ccc(Cl)cc1Cl)C(C#N)=C(N)O2 (centres unmarked)
viral titre (Vero; 1 µM): 840000 IU/mL

Cc1ccccc1NC(=N)Nc1ccccc1C
pIC50 (viral replication, anti-nucleoprotein immunostaining; Vero E6): < 5.00

CN1CCCC(CC2c3ccccc3Sc3ccccc32)C1 (centres unmarked)
pEC50 (viral replication, GFP plate reader screen; cell-based): 5.02

CNCCN(C)c1nc(NC(C)c2ccccc2)c2ccccc2n1 (centres unmarked)
AC50 (cytopathic effect, cell-based CPE; USA_WA1/2020; round 2, 5-point dilution): 10 µM

CCOC(=O)Oc1c(OC)cc(C(=O)O[C@@H]2C[C@@H]3CN4CCc5c([nH]c6cc(OC)ccc56)[C@H]4C[C@@H]3[C@H](C(=O)OC)[C@H]2OC)cc1OC
pEC50 (viral replication, GFP plate reader screen; cell-based): < 4.00

Cc1ccc(NS(=O)(=O)c2cccc(C(=O)NC3CCN(c4ncnc5[nH]cnc45)CC3)c2)cc1
relative infection (A549-ACE2, Wuhan-Hu-1; 200 µM; relative to: untreated): 15.7%

COc1ccc(CN=c2[nH]c(N3CCC[C@H]3CO)ncc2C(=O)NCc2ncccn2)cc1Cl
pIC50 (viral replication; Huh-7): < 5.70
